Measured values of several laboratories.
Numbers after ± are the reported error. ≈ marks a conversion by molar mass, not a printed value.
Organism: Klebsiella pneumoniae

With `CCCCCCCC(=O)N[C@@H](CCCN)C(=O)N[C@H](C(=O)N[C@@H](CCCN)C(=O)N[C@H](Cc1ccccc1)C(=O)N[C@@H](CC(C)C)C(=O)N[C@@H](CCCN)C(=O)N[C@@H](C(=O)N[C@@H](CC(C)C)C(=O)N[C@@H](CO)C(N)=O)C(C)C)[C@@H](C)CC` the MIC was 0.0078 to 0.0156 µg/mL (checkerboard, item: rifampicin; ATCC 13883; sensitization to antibiotics, together with: compound at 4 µg/mL).
`CC[C@H]1OC(=O)[C@H](C)[C@@H](O[C@H]2C[C@@](C)(OC)[C@@H](O)[C@H](C)O2)[C@H](C)[C@@H](O[C@@H]2O[C@H](C)C[C@H](N(C)C)[C@H]2O)[C@](C)(O)C[C@@H](C)C(=O)[C@H](C)[C@@H](O)[C@]1(C)O` has a sensitive strains of 0% (community-acquired pneumonia patients; Fine score below 70).
`Ac-DNCQYVYNV-NH2 (N-acetyl, C-amide)` — result for “fold reduction in CFU”: 3.5 ± 0.6 fold (peptide, 43816, wild-type mice, peritoneal neutrophils; intraperitoneal, 1.5 mg, dosed 10 min before infection; baseline: vehicle).
`CCCCCCCCCC(=O)N[C@@H](CCN)C(=O)N[C@H](C(=O)N[C@H](C(=O)N[C@H](CC(C)C)C(=O)N[C@@H](CC(C)C)C(=O)N[C@@H](CCN)C(=O)N[C@@H](C(=O)N[C@@H](CC(C)C)C(=O)N[C@@H](CO)C(N)=O)C(C)C)[C@@H](C)O)[C@@H](C)CC` gave an MIC of > 0.125 µg/mL (checkerboard, item: rifampicin; ATCC 13883; sensitization to antibiotics, together with: compound at 2 µg/mL).
For `COc1ccc(C(=O)NN=Cc2ccc(O)c3ncccc23)cc1`, the EC50 was 85 µM (bacterial growth; ATCC 13883; cation-supplemented medium).
`Polymyxin B` gave an MIC of 2 µg/mL (NCTC 13424; 5% CO2).
The sensitive strains of `CC[C@H]1OC(=O)[C@H](C)[C@@H](O[C@H]2C[C@@](C)(OC)[C@@H](O)[C@H](C)O2)[C@H](C)[C@@H](O[C@@H]2O[C@H](C)C[C@H](N(C)C)[C@H]2O)[C@](C)(O)C[C@@H](C)CN(C)[C@H](C)[C@@H](O)[C@]1(C)O` is reported as 0% (community-acquired pneumonia patients; Fine score 70 or more).
The inhibition zone of `CCOC(=O)c1cc(C#N)c(=O)n(NS(=O)(=O)c2ccc(C)cc2)c1N` is reported as 35.3 mm (microbial growth, well diffusion; 15000 µg/mL, 24 h).
For `CCOC(=O)c1c(N)csc1-c1cn(-c2ccccc2)nc1-c1ccc(C)cc1`, the MIC was 0.25 ± 0.2 µg/mL (≈ 0.62 µM) (broth microdilution; clinical urinary isolate; compound gamma-irradiated 5 kGy).
The inhibition zone of `CSc1c(-c2nc3ccccc3s2)c(N)n(NS(=O)(=O)c2ccc(C)cc2)c(=O)c1C#N` is reported as 32.2 mm (microbial growth, well diffusion; 15000 µg/mL, 24 h).
`CC1(C)S[C@@H]2[C@H](NC(=O)[C@H](N)c3ccc(O)cc3)C(=O)N2[C@H]1C(=O)O` has a sensitive strains of 0% (community-acquired pneumonia patients; Fine score 70 or more).
With `Cc1ccc(S(=O)(=O)Nn2c(N)c(-c3nc4ccccc4s3)c3[nH]nc(N)c3c2=O)cc1` the inhibition zone was 21.3 mm (microbial growth, well diffusion; 15000 µg/mL, 24 h).
For `Cc1c(NC(=O)CC2=NC(=O)CS2)c(=O)n(-c2ccccc2)n1C`, the MIC was 0.45 µg/mL (≈ 1.31 µM) (microbial growth, broth dilution).

Repeated from above:
`CC1(C)S[C@@H]2[C@H](NC(=O)[C@H](N)c3ccc(O)cc3)C(=O)N2[C@H]1C(=O)O` has a sensitive strains of 0% (community-acquired pneumonia patients; Fine score 70 or more).
